# Assay results from different studies.
# Every numbered part comes from another study and shows a few of its results, in no order. Changes are numbered by the printed parent chain.

# Sample 1
# Target: RING finger protein unkempt homolog, zinc fingers 1-6, SBP tag (UNK, Homo sapiens, UniProt Q9C0B0, residues 30-357)
# Chain of UniProt Q9C0B0 (30-357, looked up): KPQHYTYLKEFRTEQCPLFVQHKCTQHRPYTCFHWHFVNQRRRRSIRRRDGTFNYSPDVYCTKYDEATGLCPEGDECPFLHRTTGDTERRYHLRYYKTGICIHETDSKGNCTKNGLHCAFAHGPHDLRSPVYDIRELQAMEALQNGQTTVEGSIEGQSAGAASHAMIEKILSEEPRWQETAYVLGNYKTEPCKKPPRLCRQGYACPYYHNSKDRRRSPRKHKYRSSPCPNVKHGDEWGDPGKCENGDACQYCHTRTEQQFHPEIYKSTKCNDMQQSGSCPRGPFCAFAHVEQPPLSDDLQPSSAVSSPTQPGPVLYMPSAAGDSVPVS
# Method: RNA Bind-n-Seq
# Form: RNA
# Matrix: in vitro
# Concentration: 100 nM
# Setting: RNA with constant flanks, vertebrate orthologous sites, ends assumed
# Relative to: input RNA pool
# Reading: higher = stronger binding
# All sequences stand within: GGGAGUUCUACAGUCCGACGAUC … CAACAGAGGAUUGAGCAUCA
Strand,bound/input enrichment [ratio]
CCCCGAUUUUAGAUGUGAUAUCUAGGCUUUCAUUCCAGUUUGUUUUUGUCUUUUCUUGUUUAGAUACCAAUCUUUUAAAUUCUUGCAUUUUAGUAAGAAAGCUACCUUUUUAUGGAUGUU,1.03
UAAUUUUGAUUAUUUUCAAUCUCUUCUCCCCUUUCCUGAUUUUAAAAGCCCUUUUUUUAGGUAUAUGUAGUAACAUUAGCAAAAAGAUUUAAUUUGGGCAACUUUGAUUCUUAAAACAGA,0.607
AUGCAUUUUGCCACUUGGAUGUGGUCUGCACUGGAAGCUGCUGGCCCCUCCACAACAACACAUAAAAUGUUUGUCUUUUUUUAAAAUGUUAAAACUGAAUUGAAUUUACUAAAAAUGUAA,0.24
UGUUUUGUACAGGACCUUCCUCUGUACCAGUUUGUUGUGGUUAUAAAGCAAUUAGCAAAUCAGCUUACAUUUGUAUUUAUUUUCUGUCCCAUACUUUUCUCUGCCUCAUGUUUUUUUUUU,0.759
GCUCUAGUUCUUAACAACCGACACUCCUAAAAGAUUUAGAAAAAAGUUUACAAAAUAAUCUAGUUUACAGAAAAAUCUUGUGCUAGAAUACUUUUUAAAAGGUAUUUUGAAUACCAUUAA,0.787
UCAUUGUACUGCCAGCAUCAUCCUAGUGUUAAACCAGCCGCUGUGAUAACUAGUGUGUGCUAGAAUUAUUUACUAUUACCUUUUAAACUAUGCGCUUUGCCCAAUACUUGAAAGCAAUCC,2.8
UCAGUCCCCUGGGCUGGGACAGAUUUUUUUUAACGUCUUGAAACUUAAAUUCUGUGCUUGUAGGAGACUCUAACGUUUUUGUCUUUUUUUUUUUACACAAAACCACCUCCACCUCUAGUG,0.357
AGUAGUUUUAAGCUUGUUUGCACAGUUCUUUUUUUCCAUUGGAAAUGGAAUUCAUUGCCUUAGGUCUUUUAAAAUAGUGUAUUAUUAUCGUUGGGGCUGGCUCUAUGCUUGAAAACCAGU,2.95
UUGGGACCAGCUCUCCAAAUAGGAAUAGUAGUAAAAAAAAUAAGCAAAAUGAUAUUUGUGUAGAAAAAACAGAAGUUAAAUCAUGUAAAGUAAAUGCUGCUAGCGUUCCAGGUUCUAAAG,0.681
CAUAGCCUGGCUACUGUGAUACUCAAAAUAUCCACAGUUCUCACUUGUUCCAAAUGAUCCUAAUAAUGGCCUAGAAAUAUCCUCUCUUACCUGUUAUUUAUCAAUUUUUCCCAGUAUUUU,0.778
GGCAGGCCAGGGAUUGAGGCCGACCUUCCCACAGUUACCGAGUAGGUACGGAAACAACAGGACUGGACAGCCAAGACCUUGAAGGACUCUAACUUAUUUUCAUGGAGACUAUCGACUCCU,0.314

# Sample 2
# Target: ABI1, truncated, D143A, DHFR fusion (Arabidopsis thaliana)
# Method: DHFR PCA, deep sequencing
# Matrix: yeast
# Setting: methotrexate growth selection, single substitutions
# Added: (+)-ABA 2500 µM
# Relative to: wild-type fitted maximum
# Reading: higher = stronger binding
# Starting sequence: PYL1, truncated, DHFR fusion (Arabidopsis thaliana); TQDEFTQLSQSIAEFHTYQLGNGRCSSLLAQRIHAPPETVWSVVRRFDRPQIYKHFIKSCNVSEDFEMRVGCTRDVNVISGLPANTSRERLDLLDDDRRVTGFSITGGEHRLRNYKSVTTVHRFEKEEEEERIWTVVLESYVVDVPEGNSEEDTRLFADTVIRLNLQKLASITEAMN
Variant,relative binding score [%]
T154G,65.6
W41I,-3.45
E128W,95
E64G,96.6
Q31G,66
V62I,93.6
G23N,101
T39H,99
I52E,93.1
N114D,97.9
R123G,98.8
S150K,90.3
V62K,82.5
G71W,65.4
V44I,97.4
E152T,95.9
A13R,96.5
P146Q,74.2

# Sample 3
# Target: Histone acetyltransferase KAT6A, winged helix 2, GST fusion (KAT6A, Homo sapiens, UniProt Q92794, residues 85-181)
# Method: protein binding microarray
# Form: double-stranded DNA, one strand shown
# Matrix: in vitro
# Concentration: not given
# Setting: 8-mer, flanks averaged, mean of 2 arrays, mostly near background
# Relative to: not given
# Reading: higher = stronger binding
# Residues (chain): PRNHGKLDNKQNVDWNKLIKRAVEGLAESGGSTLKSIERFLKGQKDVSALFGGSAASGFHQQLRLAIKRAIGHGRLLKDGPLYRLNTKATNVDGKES
Strand,E-score
GAGAGCCC,-0.0877
GATAGAAC,0.007
ATGTGCCA,-0.0441
CTCAGAAG,0.0893
CATGAAAC,0.0535
ACCGTGGG,-0.104
GTACATGA,-0.0973
CACGATCA,-0.0381
CCCCAAGG,-0.0939
TCGTCCAA,-0.0423
CAACTCTG,0.0453
AATAGGAA,-0.0508
CCATAGAC,-0.266
GGGCCGGA,0.135
CTGTCGTA,-0.0507
CCCTTCAC,-0.047
ACGTTTGG,-0.233
CTTATGTA,0.0359
AACGCTGA,-0.0505
CATAGCAC,-0.113
GTCTGCAC,-0.144
AATAATTC,0.159
GCGGCGGA,0.253
CGGCGATA,0.1
CCCAACGA,-0.031

# Sample 4
# Target: RNA binding protein fox-1 homolog 2, RRM domain, GST-SBP tag (RBFOX2, Homo sapiens, UniProt O43251-10, residues 100-194)
# Method: RNA Bind-n-Seq
# Form: RNA
# Matrix: in vitro
# Concentration: 365 nM
# Setting: natural RNA segment, single round, ends assumed
# Relative to: no-protein control
# Reading: higher = stronger binding
# All sequences stand within: GGGAGUUCUACAGUCCGACGAUC … UGGAAUUCUCGGGUGCCAA
# Residues (chain): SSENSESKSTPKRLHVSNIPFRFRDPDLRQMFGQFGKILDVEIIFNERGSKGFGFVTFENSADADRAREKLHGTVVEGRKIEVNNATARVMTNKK
Strand,RBNS enrichment (R)
GCCAAACCAAAGACAGAUUUGCUUAACCAACAGACGGGUGCUGACCCAUCCAGAACCACGUGCACGAGUUUUUACCUAGCUGGUUGUUUCCGAGGACCAGGCACUCGAUC,0.717
GUGGGCUGCUAACAGCAAGAGGGAGCACUUGUCUUCAUCACAAGCAAGAUGAUGAGCACAGAGUGAGACCUUUAACAGGAUGGCGGAGGGAAAGGUGUUUGCUGGAGUGA,2.59
GGGAAUCUUCAUGAGAAGCUGAAAGAAAGGGAAAAAGAAAGUGGCUUUCUGCUUUCAAAAUUGAGGAAAAUAAACCAGAAAAUGCCAAAAGUACUGUUUUAGCAGUGCAC,0.639
CUGAGUCACCUUCUAUCUAUACUUUGCUUAAAAGCUAUCCCAGAUACUCCCCCUUGAGGAGCUCAUGCCCUUCCUUCCUCUUUAUUCGAGCAUACUGGCAAUGCAUUGGA,0.926
CUCUCUCUGAAGCCAGGGCCCUUCCAUUCCAUUUAGCCUUUGGAUCAUCCUGGCUGGGAGAAGUGGGACCGAGCCACCCAGCCCCACUAUCCCCAAGCAGCCCUACAGCC,0.397
AAAUCUCCCUGUUGACUCAGUGCCUCCUCGGCUUCCUUGGAAGCCCAGAGGGACUAUGAUCUGAUGGCCUCUAGGUGUUGUUUUGUGCAAUAUACAGCCCCAGGUAGGGA,0.207
AUUUCUGGACCCAGGGAAGGGAACUCAGCCCCUUACAACUCUUGGGGCUCCUCCAGGCCAGGGCCCUACACAAGAACUGUCCCCCAGCUCUGCUAUCCCCAUGGCCAUGA,0.276
UGUACAGGUUACGGUUCUAUGCAUAAACAUUUUAGAAAACAAACAUAGAAACUUAGGCACUUUGCUGACUCCUUUCUGAACUAUCAGACUGGCCAUUUGAAAGCCUAGUA,0.31
GUCCAUUUAACGACUGGUCACCUGCUGGGGACCCAGGCAUCUGCCUUGUUUUCCUUUUUCUUUCAGUUUUGGACUUUGGACCCUGCACAGCCGUUCCCCAGGGUCUGAAA,0.325
CUCCUCACUAGCUCCAAUGUUCCCAUGUUUCCAUUUGUGUGUCUUAUACGUGUAUGUGUGCCCUCUCCUUACAUACACACCCUGGAAUAGAGUUCUCACACCGUUCAAUU,1.04
AAUUAUUGAAAUCCAUUUGCACCCUGUUAAGAAUGGACUUAAAAGUACUGCUGGACAGGCAUGUGUGCUCAAAGUACAUUGAUUGCUCAAAUAUAAGGAAAUGGCCCAAU,2.25
CUGUAAGGAUGAGCCCAGUUAGUAAGGAUGUUGGUAAUCAGCAGAGACCAUUCUCAAGGGUAGGUGUUCUGCAGCCCCGAAUCAAAUCAUGUGAAAACCCCUUAAAUGAU,0.558

# Sample 5
# Target: CCNB1, cyclin fold, Cln2 fusion (human)
# Method: yeast growth competition, sequencing
# Matrix: yeast
# Setting: strong parent motif
# Relative to: not given
# Reading: higher = stronger binding
# Starting sequence: PKMYT1 docking peptide (human); SFEPRNLLSLFED
Variant,normalised enrichment score
S1A,1.69
E3T,1.85
F11L,1.45
N6F,0.291
S1Q,1.67
L8R,0.46
D13K,1.1
D13S,1.01
S9K,1.28
P4D,0.15
P4A,0.2
S9G,0.803
E12M,0.158
N6A,0.995
F11G,-0.201
L8W,0.357

# Repeated from above (sample 2):
Variant,relative binding score [%]
V62I,93.6
G23N,101
T39H,99
I52E,93.1
N114D,97.9
R123G,98.8
S150K,90.3
